Published values from different studies.
± marks the error that the study gave.

| Structure (SMILES) | assay | test system | conditions | scale | endpoint | result |
| --- | --- | --- | --- | --- | --- | --- |
| CC[C@H](C)[C@@H]1NC(=O)[C@H](Cc2ccccc2)NC(=O)[C@@H](NC(=O)[C@H](CCCNC(=N)N)NC(=O)[C@H](Cc2ccccc2)NC(=O)[C@H](Cc2ccccc2)NC(=O)[C@H](CCCCN)NC(=O)[C@H](CO)NC(=O)[C@H](CC(C)C)NC(=O)[C@H](CCCNC(=N)N)NC(=O)[C@H](CCSC)NC(=O)[C@H](C)N)CCNC(=O)NCCC[C@@H](C(=O)N[C@@H](CCCNC(=N)N)C(=O)N[C@@H](CCCCN)C(=O)N[C@@H](CCCCN)C(=O)O)NC(=O)[C@H](CC(C)C)NC1=O | circular dichroism | 2.5 mM DPC | – | – | melting temperature | 93.7 °C |
| Cc1ccc(C(=O)N[C@@H](CO)CC(C)C)cc1C | LC-MS | Sprague-Dawley rat, both sexes, rat liver microsomes | 10 µM of parent drug, 20 min, pH 7.4, together with: NADPH | baseline: parent drug at time zero | metabolite peak area | 1.2% |
| Cn1c(=O)c2c(nc(OC3CCN(C(=O)C4CC4)CC3)n2Cc2ccccc2Cl)n(C)c1=O | metabolic stability | rat, liver microsomes | – | – | half-life | 21 min |
| [11CH3]c1ccc2nc(C3CCC3)n(-c3ccc4[nH]ncc4c3)c2n1 | – | human female, adrenals | – | – | absorbed radiation dose | 4.1 µSv/MBq |
| N=C(N)NCCC[C@H](NC(=O)[C@@H]1CSSC[C@H](NC(=O)[C@H](Cc2ccc3ccccc3c2)NC(=O)[C@H](CCCNC(=N)N)NC(=O)[C@H](CCCNC(=N)N)NC(=O)CN2CCN(CC(=O)O)CCN(CC(=O)O)CCN(CC(=O)O)CC2)C(=O)N[C@@H](Cc2ccc(O)cc2)C(=O)N[C@@H](CCCNC(N)=O)C(=O)N[C@@H](CCCCN)C(=O)N[C@H](CCCCN)C(=O)N2CCC[C@H]2C(=O)N[C@@H](Cc2ccc(O)cc2)C(=O)N[C@@H](CCCNC(=N)N)C(=O)N[C@@H](CCCNC(N)=O)C(=O)N1)C(N)=O [copper-64 labelled] | – | mice, CHO-CXCR4 tumour and spleen | 4 h, together with: unlabeled peptide 50 µg | – | tumour and spleen uptake | inhibited |
| C[C@H](CN(C)Cc1ccccc1)NC(=O)c1ccc(-c2noc(C(F)(F)[18F])n2)cc1 | PET imaging | female Sprague-Dawley rats, brain | intravenous, 10 min | – | tissue uptake | 2.4 ± 0.44 SUV |
| [2H]C([2H])([2H])NC(=O)c1ccc(N2C(=S)N(c3ccc(C#N)c(C(F)(F)F)c3)C(=O)C2(C)C)cc1F | – | healthy Chinese men | oral, 40 to 160 mg, fasting, and fed (high-fat meal) | – | tolerability | not toxic |
| CC(O)c1nc(-c2ccc3c(c2)CCC3NC(=O)c2cnn(C)c2)no1 (centres unmarked) | – | human, pooled plasma | oral, 20 mg, 2 to 264 h | baseline: total radioactivity AUC | AUC(0-t) share of total radioactivity | 36.4% |
| CN(C)c1cc(CN2CCCCC2)c(O)c2c1C[C@H]1C[C@H]3[C@H](N(C)C)C(O)=C(C(N)=O)C(=O)[C@@]3(O)C(O)=C1C2=O | – | cynomolgus monkey, plasma | oral, 5 mg/kg | – | AUC | 1500 ng·h/mL |
| CCCCCCCC(=O)OC[C@H](NC(=O)[C@H](CO)NC(=O)CN)C(=O)N[C@@H](Cc1ccccc1)C(=O)N[C@@H](CC(C)C)C(=O)N[C@@H](CO)C(=O)N1CCC[C@H]1C(=O)N[C@@H](CCC(=O)O)C(=O)N[C@@H](Cc1cnc[nH]1)C(=O)N[C@@H](CCC(N)=O)C(=O)N[C@@H](CCCNC(=N)N)C(=O)N[C@H](C(=O)N[C@@H](CCC(N)=O)C(=O)N[C@@H](CCC(N)=O)C(=O)N[C@@H](CCCNC(=N)N)C(=O)N[C@@H](CCCCN)C(=O)N[C@@H](CCC(=O)O)C(=O)N[C@@H](CO)C(=O)N[C@@H](CCCCN)C(=O)N[C@@H](CCCCN)C(=O)N1CCC[C@H]1C(=O)N1CCC[C@H]1C(=O)N[C@@H](C)C(=O)N[C@@H](CCCCN)C(=O)N[C@@H](CC(C)C)C(=O)N[C@@H](CCC(N)=O)C(=O)N1CCC[C@H]1C(=O)N[C@@H](CCCNC(=N)N)C(=O)O)C(C)C | – | chronic HFrEF patients | intravenous infusion, 0.1 µg/kg/min, 30 min after infusion end | – | heart rate | 68.2 ± 11.4 bpm |
| NC[C@@H](C(=O)Nc1ccc(-c2cn[nH]c2)cc1)c1ccccc1 | OECD 405 eye irritation | New Zealand White rabbit, eye | topical, 0.1%, 49 h (day 3), scale 0 to 2 | direction not given | iris score | 0 |
| OCc1cn(Cc2ccc(-c3noc(-c4ccc(OCC[18F])c(C(F)(F)F)c4)n3)cc2)nn1 | – | rat, liver | intravenous, 2 h | – | tracer uptake | 3.66 %ID/g |
| Cn1c(=O)oc2ccc(-c3ccc(CC(C#N)NC(=O)C4CNCCCO4)c(F)c3)cc21 (centres unmarked) | – | human, plasma | 40 mg once daily, steady state, geometric mean | – | trough concentration | 102 ng/mL |
| CCCC[C@H](NC(=O)CNC(=O)CNC(=O)CN1CCN(CC(=O)O)CCN(CC(=O)O)CC1)C(=O)N[C@H]1CC(=O)NCCCC[C@@H](C(N)=O)NC(=O)[C@H](Cc2c[nH]c3ccccc23)NC(=O)[C@H](CCCNC(=N)N)NC(=O)[C@@H](Cc2ccccc2)NC(=O)[C@H](Cc2c[nH]cn2)NC1=O [copper-64 labelled] | – | female C57 mouse, B16/F1 melanoma | intravenous, 0.037 MBq, 2 h | baseline: tumour over stomach | uptake ratio | 16.3 |
| CC(=O)[CH](C(C)=O)[Pt-2]1([S+](C)C)[O]C(C)=CC(C)=[O+]1 (centres unmarked) | – | rat, blood | intravenous, 20 mg/kg, single dose | – | ALT | 28.6 ± 5.6 U/L |
| CC(C)c1cnc(-c2cc(Cl)ccc2F)cc1Nc1ccncc1C(=O)NC(CO)CO | refers to: Rash | solid tumour patients | oral, dose not given, phase I monotherapy | – | treatment-related adverse events | 7.1% |
| COc1ccc([C@@H]2CC(=O)c3c(O)cc(O[C@@H]4O[C@H](CO[C@@H]5O[C@@H](C)[C@H](O)[C@@H](O)[C@H]5O)[C@@H](O)[C@H](O)[C@H]4O)cc3O2)cc1O | – | rat plasma | 0.48 ng/mL, 7 days, -80 °C, long-term storage | – | measured concentration | 0.47 ± 0.04 ng/mL |
| COc1cc(O)c(-c2cc(-c3cc(-c4c(O)cc(OC)c5c4C[C@@H](C)N[C@@H]5C)c4cc(C)cc(OC)c4c3O)c(O)c3c(OC)cc(C)cc23)c2c1[C@@H](C)N[C@H](C)C2 | metabolic stability | male rat, liver microsomes | 1 µM, 30 min | – | compound remaining | 96% |

| Structure (SMILES) | assay | test system | conditions | scale | endpoint | result |
| --- | --- | --- | --- | --- | --- | --- |
| CC(=O)N[C@H](CC(=O)O)C(=O)N[C@H](Cc1c[nH]c2ccccc12)C(=O)N[C@H](Cc1ccccc1)C(=O)N[C@H](CCCCN)C(=O)N[C@H](C)C(=O)N[C@H](Cc1ccccc1)C(=O)N[C@H](Cc1ccc(O)cc1)C(=O)N[C@H](CC(=O)O)C(=O)N[C@H](CCCCN)C(=O)N[C@@H](C(=O)N[C@H](C)C(=O)N[C@H](CCC(=O)O)C(=O)N[C@H](CCCCN)C(=O)N[C@H](Cc1ccccc1)C(=O)N[C@H](CCCCN)C(=O)N[C@H](CCC(=O)O)C(=O)N[C@H](C)C(=O)N[C@H](Cc1ccccc1)C(N)=O)C(C)C | – | statin-treated high-risk CHD patients, plasma | oral, 100 mg daily, day 13, 0 to 8 h, mean, detected subjects only | – | Cmax | 2.8 ng/mL |
| O=C([O-])CN1CCN(CC(=O)[O-])CCN(CC(=O)NCC2CCC(C(=O)NC(Cc3ccc4ccccc4c3)C(=O)NCCCCC(NC(=O)NC(CCC(=O)O)C(=O)O)C(=O)O)CC2)CCN(CC(=O)[O-])CC1.[44Sc+3] (centres unmarked) | PET/CT dosimetry | human patients, kidneys | mean of 4 patients | – | residence time | 0.26 h |
| COc1cc(N(C)CCN(C)C)c(NC(=O)CCSCC(N)C(=O)O)cc1Nc1nccc(-c2cn(C3CC3)c3ccccc23)n1 (centres unmarked) | radio-HPLC | human, feces | dose not given, 48 to 96 h, sample holds 20.06% dose | baseline: sample radioactivity | share of radioactivity | 1.94% |
| CCn1cc(/C=C/c2ccc3ccccc3[n+]2CC)c2ccccc21 | – | methanol | – | – | Stokes shift | 72 nm |
| C[N+](C)(C)CC(CC(=O)[O-])OC(=O)CCC(=O)Nc1ccn([C@@H]2O[C@H](CO)[C@@H](O)C2(F)F)c(=O)n1 (some centres unmarked) | – | extracted rat plasma | 125.00 ng/mL, 8 h, 10 °C, autosampler stability, mid QC | – | measured concentration | 112 ± 5.6 ng/mL |
| CCCC[C@H](NC(C)=O)C(=O)N[C@H]1CC(=O)NCCCC[C@@H](C(=O)N[C@@H](C(=O)N2CCC[C@@H]2C(N)=O)C(C)C)NC(=O)[C@H](Cc2c[nH]c3ccccc23)NC(=O)[C@H](CCCN=C(N)N)NC(=O)[C@@H](Cc2ccc3ccccc3c2)NC(=O)[C@@H]2CCCN2C1=O | – | healthy dogs, plasma | subcutaneous, 2.25 mg/kg per day, day 5, 1 h post-dose, median | – | plasma histamine | 14.4 ng/mL |
| CNC(=O)N[C@]1(C)CCC[C@@]2(C)C3CC[C@@]4(C)C[C@]3(CCC21)CC4=O (single isomer, unassigned) | – | rat plasma | 1.5 ng/mL, freeze-thaw stability, three cycles | – | measured concentration | 1.47 ± 0.13 ng/mL |
| COc1cc(OC)cc(C2=C3C(C)=C(I)C(/C=C/c4c[nH]c5ccccc45)=[N+]3[B-](F)(F)n3c(/C=C/c4c[nH]c5ccccc45)c(I)c(C)c32)c1 | – | DMSO | – | – | Stokes shift | 785 cm⁻¹ |
| CCCC[C@H](NC(=O)[C@H](CC(C)C)N(C)C(=O)CNC(=O)[C@@H](NC(=O)[C@H](Cc1ccccc1)NC(=O)[C@H](CCCCN)NC(=O)[C@@H](N)CC(=O)O)C(C)C)C(N)=O | – | anaesthetised Sinclair minipigs | IN, 100 µg/kg | baseline: baseline | heart rate change | 5.51 ± 13.9% |
| CC(C)[C@H](NC(=O)CNC(=O)[C@H](CCC(N)=O)NC(=O)[C@H](C)N)C(=O)O | LC-MS/MS | human, male, plasma | intravenous, 20 mg/kg three times daily, day 1, first dose, 10 min infusion, geometric mean | – | volume of distribution | 8 L/kg |
| Cc1cc(C(=O)N[C@@H](CO)CC(C)C)ccc1CO | LC-MS | Sprague-Dawley rat, both sexes, rat liver microsomes | 10 µM of parent drug, 20 min, pH 7.4, together with: NADPH | baseline: parent drug at time zero | metabolite peak area | 2.7% |
| C=CC(=O)Nc1cc(Nc2nccc(-c3cn(C4CC4)c4ccccc34)n2)c(OC)cc1N(C)CCNC | LC-RAM/HRMS | human male, plasma | oral, 110 mg, 24 h | baseline: total radioactivity | share of radioactivity | 16.1% |
| COC(=O)c1ccc(-c2cn(Cc3cc(Cl)ccc3O[11CH3])nn2)cc1 | PET, Logan plot, t*=40 min | rhesus monkey, brain NAc | dose not given | – | distribution volume | 0.625 mL/cm³ |
| Cc1[nH]c(/C=C2\C(=O)Nc3ccc(F)cc32)c(C)c1NC(=O)CCN1CCN(C)CC1 | – | dog plasma | 1.00 ng/mL nominal, 30 d, -80 °C, frozen storage | – | measured concentration | 0.99 ng/mL |
| [C-]#[O+].[C-]#[O+].[C-]#[O+].[C-]#[O+].[C-]#[O+].[C-]#[O+].[Cl-].[Cl-].[Re+].[Re+].c1cnc(-c2ncccn2)nc1 | cyclic voltammetry | 0.1 M Na2SO4, gold electrode | scan rate 50 mV/s | – | redox potential | -0.621 V vs Ag/AgCl |
| CCOC(=O)CN1CCN(CC(=O)OCC)CCN(Cc2cc(-c3nc4ccccc4s3)cc(OC)c2O)CC1 | UV-Vis pH titration | – | 25 °C, ionic strength 0.1 M NaCl | – | pKa4 | 11.4 |
| CC(C)(O)c1ncc([S@](N)(=O)=NC(=O)Nc2c3c(cc4c2CCC4)CCC3)s1 | – | healthy human volunteers, plasma | oral, 25 mg twice daily, day 14, fed, enteric-coated tablet | – | dose-normalised AUC(0-tau) | 1080 ng·h/mL/mg |

A few entries again:
| Structure (SMILES) | assay | test system | conditions | scale | endpoint | result |
| --- | --- | --- | --- | --- | --- | --- |
| CN(C)c1cc(CN2CCCCC2)c(O)c2c1C[C@H]1C[C@H]3[C@H](N(C)C)C(O)=C(C(N)=O)C(=O)[C@@]3(O)C(O)=C1C2=O | – | cynomolgus monkey, plasma | oral, 5 mg/kg | – | AUC | 1500 ng·h/mL |
| CCCCCCCC(=O)OC[C@H](NC(=O)[C@H](CO)NC(=O)CN)C(=O)N[C@@H](Cc1ccccc1)C(=O)N[C@@H](CC(C)C)C(=O)N[C@@H](CO)C(=O)N1CCC[C@H]1C(=O)N[C@@H](CCC(=O)O)C(=O)N[C@@H](Cc1cnc[nH]1)C(=O)N[C@@H](CCC(N)=O)C(=O)N[C@@H](CCCNC(=N)N)C(=O)N[C@H](C(=O)N[C@@H](CCC(N)=O)C(=O)N[C@@H](CCC(N)=O)C(=O)N[C@@H](CCCNC(=N)N)C(=O)N[C@@H](CCCCN)C(=O)N[C@@H](CCC(=O)O)C(=O)N[C@@H](CO)C(=O)N[C@@H](CCCCN)C(=O)N[C@@H](CCCCN)C(=O)N1CCC[C@H]1C(=O)N1CCC[C@H]1C(=O)N[C@@H](C)C(=O)N[C@@H](CCCCN)C(=O)N[C@@H](CC(C)C)C(=O)N[C@@H](CCC(N)=O)C(=O)N1CCC[C@H]1C(=O)N[C@@H](CCCNC(=N)N)C(=O)O)C(C)C | – | chronic HFrEF patients | intravenous infusion, 0.1 µg/kg/min, 30 min after infusion end | – | heart rate | 68.2 ± 11.4 bpm |
| NC[C@@H](C(=O)Nc1ccc(-c2cn[nH]c2)cc1)c1ccccc1 | OECD 405 eye irritation | New Zealand White rabbit, eye | topical, 0.1%, 49 h (day 3), scale 0 to 2 | direction not given | iris score | 0 |
| OCc1cn(Cc2ccc(-c3noc(-c4ccc(OCC[18F])c(C(F)(F)F)c4)n3)cc2)nn1 | – | rat, liver | intravenous, 2 h | – | tracer uptake | 3.66 %ID/g |
